Measurements of several laboratories.
Parts stem from different laboratories: compare values within a part only.

Study 1
Target: 5-hydroxytryptamine receptor 2B (HTR2B, Homo sapiens, UniProt P41595)
Sequence of UniProt P41595 (whole entry, looked up): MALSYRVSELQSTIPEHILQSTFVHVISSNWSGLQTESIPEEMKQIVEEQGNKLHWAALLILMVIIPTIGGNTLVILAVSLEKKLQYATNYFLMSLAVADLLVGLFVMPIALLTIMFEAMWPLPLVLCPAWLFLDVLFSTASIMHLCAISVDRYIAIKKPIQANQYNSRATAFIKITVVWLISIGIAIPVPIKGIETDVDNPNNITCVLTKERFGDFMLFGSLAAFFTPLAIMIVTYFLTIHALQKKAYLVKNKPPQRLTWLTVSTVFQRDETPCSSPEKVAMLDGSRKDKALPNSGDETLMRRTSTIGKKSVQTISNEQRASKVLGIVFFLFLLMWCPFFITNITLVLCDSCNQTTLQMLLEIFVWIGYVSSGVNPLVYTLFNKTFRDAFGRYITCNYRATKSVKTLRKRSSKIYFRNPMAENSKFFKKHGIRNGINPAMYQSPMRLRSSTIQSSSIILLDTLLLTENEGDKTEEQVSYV
Effect on: ligand displacement
Tested at: 10 µM
SMILES	inhibition [%]
CCCCN(CCCC)C(=O)CN1C[C@@H](c2cc(OC)c3c(c2)OCO3)[C@H](C(=O)O)[C@H]1CC(C)(C)CCC	76
Cc1cc(C)c(-n2ccn3nc(-c4cccnc4)cc23)cc1NC(=O)c1cc(C#N)cc(S(F)(F)(F)(F)F)c1	-7
CC1=C(C#N)[C@@H](c2ccc3[nH]nc(C)c3c2)C(C#N)=C(c2ccc(Cl)cc2)N1	-7.44
CN([C@@H]1CCc2c(CC(=O)O)c3ccccc3n2C1)S(=O)(=O)c1ccc(F)cc1	-4.07
Cn1nc(C(=O)NCc2ccc(C(=O)O)cc2)cc1-c1ccc2[nH]ccc2c1	-2.75
FC(F)(F)c1ccc2c(c1)nc(-c1cccnc1)n2C1CC1	79.7
CC1CCN(c2ccnc(NCc3cn(C)cn3)n2)CC1	81.8
N#CN1CC[C@@H](C(=O)Nc2nc3c(s2)CN(C(=O)CN=[N+]=[N-])CC3)C1	5.55
C[C@H](NC(=O)Nc1cc2[nH]ncc2c(CO)n1)c1ccccn1	90.9
Cc1c[nH]c2nccc(Oc3c(F)cc(Nc4cc(Cl)nc(N)n4)cc3F)c12	10.4
CN(C)c1ncnc(-c2ccc3nc(Nc4cc(CN5CCN(C(=O)CC(F)(F)F)CC5)ccn4)[nH]c3c2)c1Cl	39
O=C(O)[C@H]1[C@H](Cn2nnc3ccccc3c2=O)CC[C@@H]1C(=O)c1ccc(OCCC2CCOCC2)cc1	22.8
CC(=O)C1=C(C)N(c2cccc(C(F)(F)F)c2)C(=O)N[C@H]1c1ccc(C#N)nc1	15.8
CO[C@@H](C)c1c(Nc2ccc([C@H](N(C)C(=O)C3CCS(=O)(=O)CC3)C(F)(F)F)cc2)cnc2cc(Cl)nn12	-3.94
CC1=C(C#N)C(c2ccc3[nH]nc(C)c3c2)C(C#N)=C(C)N1	-10.4
CC(=O)N1CCC(c2ccc(C(=O)NC(=N)N)cc2C(F)(F)F)CC1	-8.79
O=c1nc(-c2ccccn2)sc2ccccc12	34.3
CN(C)C(=O)Cn1cc(-c2nc(C3(c4ccc(-c5cnc(N)nc5)cc4)CC3)no2)cn1	-11.6
CN([C@@H]1CCc2c(CC(=O)O)c3cc(S(C)(=O)=O)ccc3n2C1)S(=O)(=O)c1ccc(F)cc1	-10.2
O=C(Nc1cnc(Oc2ccc(F)cc2)nc1)N1CCc2ncccc2[C@@H]1c1ccc(F)cc1	37.6
c1ccc(N2CCN(Cc3nc4ccccc4[nH]3)CC2)nc1	8.32
O=C(Nc1ccc(Oc2ccc(F)cc2)cc1)N1CCc2ncccc2[C@H]1c1ccc(F)cc1	52.4
CC(C)CC(=O)N1CCc2nc(-c3ccc(Br)cc3)nc(N(C)Cc3ccccc3)c2C1	7.85
O=C(NCc1ncc(C(F)(F)F)cc1Cl)c1ccc2c(c1)C1(CCS(=O)(=O)CC1)[C@H](C1CC1)N2S(=O)(=O)c1ccc(F)cc1	-2.53
O=S(=O)(NC1CCC(c2cc(F)ccc2F)(S(=O)(=O)c2ccc(Cl)cc2)CC1)C(F)(F)F (stereo not drawn)	4.74

Study 2
Target: Mitogen-activated protein kinase kinase kinase 7 (MAP3K7, Homo sapiens, UniProt O43318)
Effect on: enzyme activity
Mode: inhibitor
Tested at: 0.5 µM
Relative to: control
Construct (O43318 1-606): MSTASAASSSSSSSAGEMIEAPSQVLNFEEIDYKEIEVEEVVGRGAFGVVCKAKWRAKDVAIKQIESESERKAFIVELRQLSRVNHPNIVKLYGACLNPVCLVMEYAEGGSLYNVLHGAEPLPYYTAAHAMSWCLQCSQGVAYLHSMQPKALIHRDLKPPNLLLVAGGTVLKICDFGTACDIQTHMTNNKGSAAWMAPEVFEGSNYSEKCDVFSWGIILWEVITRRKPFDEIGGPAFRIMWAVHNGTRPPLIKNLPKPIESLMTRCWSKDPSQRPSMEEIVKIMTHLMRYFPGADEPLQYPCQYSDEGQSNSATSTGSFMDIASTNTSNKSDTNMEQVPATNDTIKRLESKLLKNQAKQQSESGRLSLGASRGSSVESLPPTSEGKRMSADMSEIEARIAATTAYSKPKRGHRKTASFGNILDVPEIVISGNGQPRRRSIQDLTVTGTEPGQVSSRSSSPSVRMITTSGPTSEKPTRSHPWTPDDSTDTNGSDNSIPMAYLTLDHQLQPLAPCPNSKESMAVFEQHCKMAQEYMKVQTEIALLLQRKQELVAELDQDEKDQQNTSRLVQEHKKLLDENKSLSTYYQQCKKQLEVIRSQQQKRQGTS
SMILES	remaining activity
COc1cc2ncc(-c3ccccc3)nc2cc1OC	92.8%
CC(C)[C@H](CO)Nc1nc(Nc2cccc(Cl)c2)c2ncn(C(C)C)c2n1	71.1%
O=C(Nc1ccc(Cl)cc1)c1ccccc1NCc1ccncc1	98.1%
O=c1cc(N2CCOCC2)oc2c1ccc1ccccc12	98.3%
COc1ccc(Cl)cc1NC(=O)Nc1cc(C)nc2ccccc12	101%
Cc1nc(Nc2ncc(C(=O)Nc3c(C)cccc3Cl)s2)cc(N2CCN(CCO)CC2)n1	87.3%
Cn1cc(/C=C2\C(=O)Nc3ccc(S(N)(=O)=O)cc32)c2ccccc21	48.9%
C[S+]([O-])c1ccc(-c2nc(-c3ccncc3)c(-c3ccc(F)cc3)[nH]2)cc1 (stereo not drawn)	94%
CN(C)CCCn1cc(C2=C(c3c[nH]c4ccccc34)C(=O)NC2=O)c2ccccc21	93.6%
Cc1ccc(NC(=O)c2ccc(CN3CCN(C)CC3)cc2)cc1Nc1nccc(-c2cccnc2)n1	111%
CC(C)c1nn(-c2c(Cl)cccc2Cl)c2nc(Cc3ccc(OCCO)cc3)[nH]c(=O)c12	98.5%
CCOc1cc2ncnc(Nc3cccc(Br)c3)c2cc1OCC	102%
CCC(=O)Nc1ccc2ncnc(Nc3cccc(Br)c3)c2c1	94%
COc1cc2ncnc(Nc3ccc(OCc4ccccc4)cc3)c2cc1OC	101%
CCN1/C(=C/C(C)=O)Sc2ccc(OC)cc21	99.9%
O=C1NC(=O)/C(=C/c2ccc3nccnc3c2)S1	98.7%
COc1cc2ncnc(N3CCN(C(=O)Nc4ccc(Oc5ccccc5)cc4)CC3)c2cc1OC	98.3%
COc1ccc(-c2cnc3c(-c4ccsc4)cnn3c2)cc1	97.6%
CC(=O)O/N=C1/C(c2c(O)[nH]c3cc(Br)ccc23)=Nc2ccccc21	97.4%
Nc1[nH]nc2nnc(-c3c(-c4ccccc4)nn4ccccc34)cc12	101%
Cn1cnc2cc3c(Nc4cccc(Br)c4)ncnc3cc21	98.6%

Study 3
Target: Calcium/calmodulin-dependent protein kinase type II subunit alpha (CAMK2A, Homo sapiens, UniProt Q9UQM7)
Sequence of UniProt Q9UQM7 (whole entry, looked up): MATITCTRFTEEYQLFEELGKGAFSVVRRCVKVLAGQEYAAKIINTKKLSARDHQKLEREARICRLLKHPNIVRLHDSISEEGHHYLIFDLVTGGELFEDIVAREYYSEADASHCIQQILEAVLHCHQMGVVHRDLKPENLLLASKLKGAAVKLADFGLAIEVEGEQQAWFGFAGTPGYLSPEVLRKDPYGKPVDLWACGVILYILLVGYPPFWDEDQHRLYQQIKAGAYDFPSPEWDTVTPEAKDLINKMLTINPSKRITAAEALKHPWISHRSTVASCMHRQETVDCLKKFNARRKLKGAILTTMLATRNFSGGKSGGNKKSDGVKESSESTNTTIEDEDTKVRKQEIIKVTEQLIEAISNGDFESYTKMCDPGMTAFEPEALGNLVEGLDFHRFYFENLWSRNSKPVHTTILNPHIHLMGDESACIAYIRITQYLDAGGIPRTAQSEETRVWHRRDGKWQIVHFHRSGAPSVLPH
Effect on: enzyme activity
Mode: inhibitor
Tested at: 10 µM
SMILES	inhibition
COc1ccc(-c2cc(=O)c3c(O)c(OC)c(OC)cc3o2)cc1	-35%
COC(=O)N[C@H](C(=O)N1CCC[C@H]1c1ncc(-c2ccc3c(c2)O[C@@H](c2ccccc2)n2c-3cc3cc(-c4cnc([C@@H]5CCCN5C(=O)[C@@H](NC(=O)OC)C(C)C)[nH]4)ccc32)[nH]1)C(C)C	-6%
C=C(C)C1CC=C(C)C(O)C1 (mixture of isomers)	9%
O=C(O)c1c(O)cc(O)cc1O	-18%
CC1=C\[C@@H](O)CC(=O)Cc2nc(co2)C(=O)N2CCC=C2C(=O)O[C@H](C(C)C)[C@H](C)/C=C/C(=O)NC\C=C\1	-18%
CCCCCCCCCCCCCCCCCCOC(=O)[C@@]1(C)CC[C@]2(C)CC[C@]3(C)C(=CC(=O)[C@@H]4[C@@]5(C)CC[C@H](O)C(C)(C)[C@@H]5CC[C@]43C)[C@@H]2C1	-5%
COc1cc2c(cc1OC)[C@H]1CC(=O)[C@H](CC(C)C)CN1CC2 (racemic)	0.06%
C[C@H]1[C@H](C)CC[C@]2(C(=O)O)CC[C@]3(C)C(=CC[C@@H]4[C@@]5(C)CCC(=O)C(C)(C)[C@@H]5CC[C@]43C)[C@H]12	1%
COC(=O)[C@H]1[C@H]2C[C@@H]3c4[nH]c5ccccc5c4CCN3C[C@H]2C[C@@H](OC(=O)c2cc(OC)c(OC)c(OC)c2)[C@@H]1OC	39%
OC[C@H](O)C(O)[C@@H](O)CO	0%
CCOCC(=O)O	-53%
C[C@H]1[C@H](C)CC[C@]2(CO)CC[C@]3(C)C(=CC[C@@H]4[C@@]5(C)CC[C@H](O)C(C)(C)[C@@H]5CC[C@]43C)[C@H]12	-2%
CC[C@H](CC[C@@H](C)[C@H]1CC[C@H]2[C@@H]3CC[C@H]4C[C@@H](O)CC[C@]4(C)[C@H]3CC[C@]12C)C(C)C	20%

Study 4
SMILES: CC(C)n1cnc(-c2ccc(F)cc2)c1-c1ncc(C(=O)Nc2ccc(N3CCN(C)CC3)cc2)[nH]1
Method: phase 2a clinical trial
Host: idiopathic pulmonary fibrosis patients
measured	route	dose	setting	relative to	patients with TEAEs [%]
neoplasms (SOC)		30 mg once daily	grade 1 maximum intensity		0
neoplasms (SOC)		60 mg once daily	grade 2 maximum intensity		0
infections and infestations		60 mg once daily	grade 2 maximum intensity	patients	3
respiratory tract infection		dose not given	grade 1, all drug arms	patients	1
neoplasms (SOC)		30 mg once daily	grade 4 maximum intensity		0
neoplasms (SOC)		30 mg once daily	grade 5 maximum intensity		0
reproductive and breast disorders		30 mg once daily	grade 3 maximum intensity		0
oral herpes	oral	30 mg once daily	grade 1 maximum intensity	patients	1
respiratory tract infection		60 mg once daily	grade 1 maximum intensity	patients	1
neoplasms (SOC)		dose not given	grade 1, all drug arms		0
infections and infestations		dose not given	grade 2, all drug arms	patients	10
respiratory tract infection		dose not given	grade 2, all drug arms	patients	2
infections and infestations		dose not given	grade 3, all drug arms	patients	5
